Results from different studies.
Method: steady-state kinetics
B1: enzyme (UniProt Q53796); chain MTEHPRAHTAHLRTARLELTPLDPAADARHLHHAYGDEEVMRWWTRPACADPAETERYLTSCAAAPGARLWTIRAPDGTVPGMAGLLGGTDVPGLTWLLRRDSWGHGYATEAAAAVVGHALEDGGLDRVEAWIEAGNRRSLAVAARVGLTERARLAQHYPHRPGPHEMVVLGKARAEEPLTTLAVITELPVRDVAATLRLVEAALGARTAFAIGDPPEFAEAALTPWSAGPRFRLAAVPGPGPVEPVRLHLDAAGTADSLHRRAVDAGARVDGPPVRRPWGRSEFVITLPEGHELTVSAPV
B2: MCAT R178A (Homo sapiens, UniProt Q8IVS2); chain GQGSQVVGMGRGLLNYPRVRELYAAARRVLGYDLLELSLHGPQETLDRTVHCQPAIFVASLAAVEKLHHLQPSVIENCVAAAGFSVGEFAALVFAGAMEFAEGLYAVKIAAEAMQEASEAVPSGMLSVLGQPQSKFNFACLEAREHCKSLGIENPVCEVSNYLFPDCRVISGHQEALRFLQKNSSKFHFRRTRMLPVSGAFHTRLMEPAVEPLTQALKAVDIKKPLVSVYSNVHAHRYRHPGHIHKLLAQQLVSPVKWEQTMHAIYERKKGRGFPQTFEVGPGRQLGAILKSCNMQAWKSYSAVDVL
B3: protein (Gloriosa superba, UniProt A0A7D5Q548); chain MAEVVESRQWVMTAYAEEGLPTPEHVTLITTKVAVDAASIPEGHAAVQVLWISIDPYLRSGMLGRMDGLCFPPFPIGKVITTLGVGRIIRSKDASYCEGDIVLHTSVPVADYCIAPATMLRKIDMGTRISPLDYLTAFGLPGFAAWIAIHLIGNPKPGENVFISAAAGAVGMLAGQLAKLKGCRVVGSTGTDEKVNLLKEEFKFDDAFNYKKEADFDAALSKYLPSGIDIYVDNVGGKMLEAVLNHVNKKARIPLCGMISQYNQVWTERDGVRNLLNMIGKEVRMEGFIITSYLQQFQDFEQEIGEYLNEGKLVSKVKIVEGIEGFLESLLSLFSSSNVGKVILQVNK
B4: carbamoyl phosphate synthetase large subunit A23K (Escherichia coli, UniProt P00968); chain PKRTDIKSILILGAGPIVIGQKCEFDYSGAQACKALREEGYRVILVNSNPATIMTDPEMADATYIEPIHWEVVRKIIEKERPDAVLPTMGGQTALNCALELERQGVLEEFGVTMIGATADAIDKAEDRRRFDVAMKKIGLETARSGIAHTMEEALAVAADVGFPCIIRPSFTMGGSGGGIAYNREEFEEICARGLDLSPTKELLIDESLIGWKEYEMEVVRDKNDNCIIVCSIENFDAMGIHTGDSITVAPAQTLTDKEYQIMRNASMAVLREIGVETGGSNVQFAVNPKNGRLIVIEMNPRVSRSSALASKATGFPIAKVAAKLAVGYTLDELMNDITGGRTPASFEPSIDYVVTKIPRFNFEKFAGANDRLTTQMKSVGEVMAIGRTQQESLQKALRGLEVGATGFDPKVSLDDPEALTKIRRELKDAGADRIWYIADAFRAGLSVDGVFNLTNIDRWFLVQIEELVRLEEKVAEVGITGLNADFLRQLKRKGFADARLAKLAGVREAEIRKLRDQYDLHPVYKRVDTCAAEFATDTAYMYSTYEEECEANPSTDREKIMVLGGGPNRIGQGIEFDYCCVHASLALREDGYETIMVNCNPETVSTDYDTSDRLYFEPVTLEDVLEIVRIEKPKGVIVQYGGQTPLKLARALEAAGVPVIGTSPDAIDRAEDRERFQHAVERLKLKQPANATVTAIEMAVEKAKEIGYPLVVRPSYVLGGRAMEIVYDEADLRRYFQTAVSVSNDAPVLLDHFLDDAVEVDVDAICDGEMVLIGGIMEHIEQAGVHSGDSACSLPAYTLSQEIQDVMRQQVQKLAFELQVRGLMNVQFAVKNNEVYLIEVNPRAARTVPFVSKATGVPLAKVAARVMAGKSLAEQGVTKEVIPPYYSVKEVVLPFNKFPGVDPLLGPEMRSTGEVMGVGRTFAEAFAKAQLGSNSTMKKHGRALLSVREGDKERVVDLAAKLLKQGFELDATHGTAIVLGEAGINPRLVNKVHEGRPHIQDRIKNGEYTYIINTTSGRRAIEDSRVIRRSALQYKVHYDTTLNGGFATAMALNADATEKVISVQEMHAQIK
B5: KS T528V (Arabidopsis thaliana, UniProt Q9SAK2); chain ANNVSFEQTKEKIRKMLEKVELSVSAYDTSWVAMVPSPSSQNAPLFPQCVKWLLDNQHEDGSWGLDNHDHQSLKKDVLSSTLASILALKKWGIGERQINKGLQFIELNSALVTDETIQKPTGFDIIFPGMIKYARDLNLTIPLGSEVVDDMIRKRDLDLKCDSEKFSKGREAYLAYVLEGTRNLKDWDLIVKYQRKNGSLFDSPATTAAAFTQFGNDGCLRYLCSLLQKFEAAVPSVYPFDQYARLSIIVTLESLGIDRDFKTEIKSILDETYRYWLRGDEEICLDLATCALAFRLLLAHGYDVSYDPLKPFAEESGFSDTLEGYVKNTFSVLELFKAAQSYPHESALKKQCCWTKQYLEMELSSWVKTSVRDKYLKKEVEDALAFPSYASLERSDHRRKILNGSAVENTRVTKTSYRLHNICTSDILKLAVDDFNFCQSIHREEMERLDRWIVENRLQELKFARQKLAYCYFSGAATLFSPELSDARISWAKGGVLTVVVDDFFDVGGSKEELENLIHLVEKWDLNGVPEYSSEHVEIIFSVLRDTILETGDKAFTYQGRNVTHHIVKIWLDLLKSMLREAEWSSDKSTPSLEDYMENAYISFALGPIVLPATYLIGPPLPEKTVDSHQYNQLYKLVSTMGRLLNDIQGFKRESAEGKLNAVSLHMKHERDNRSKEVIIESMKGLAERKREELHKLVLEEKGSVVPRECKEAFLKMSKVLNLFYRKDDGFTSNDLMSLVKSVIYEPVSLQEESLT
B6: LYS1 C205S/K99M (Saccharomyces cerevisiae, UniProt P38998); chain MAAVTLHLRAETKPLEARAALTPTTVKKLIAKGFKIYVEDSPQSTFNINEYRQAGAIIVPAGSWKTAPRDRIIIGLKEMPETDTFPLVHEHIQFAHCYMDQAGWQNVLMRFIKGHGTLYDLEFLENDQGRRVAAFGFYAGFAGAALGVRDWAFKQTHSDDEDLPAVSPYPNEKALVKDVTKDYKEALATGARKPTVLIIGALGRSGSGAIDLLHKVGIPDANILKWDIKETSRGGPFDEIPQADIFINCIYLSKPIAPFTNMEKLNNPNRRLRTVVDVSADTTNPHNPIPIYTVATVFNKPTVLVPTTAGPKLSVISIDHLPSLLPREASEFFSHDLLPSLELLPQRKTAPVWVRAKKLFDRHCARVKRSSRL
B7: pol D141A/E143A (Thermococcus kodakarensis, UniProt P77933); chain 1 MILDTDYITEDGKPVIRIFKKENGEFKIEYDRTFEPYFYALLKDDSAIEEVKKITAERHGTVVTVKRVEKVQKKFLGRPVEVWKLYFTHPQDVPAIRDKIREHPAVIDIYEYDIPFAKRYLIDKGLVPMEGDEELKMLAFAIATLYHEGEEFAEGPILMISYADEEGARVITWKNVDLPYVDVVSTEREMIKRFLRVVKEKDPDVLITYNGDNFDFAYLKKRCEKLGINFALGRDGSEPKIQRMGDRFAVEVKGRIHFDLYPVIRRTINLPTYTLEAVYEAVFGQPKEKVYAEEITTAWETGENLERVARYSMEDAKVTYELGKEFLPMEAQLSRLIGQSLWDVSRSSTGNLVEWFLLRKAYERNELAPNKPDEKELARRRQSYEGGYVKEPERGLWENIVYLDFR; chain 2 SLYPSIIITHNVSPDTLNREGCKEYDVAPQVGHRFCKDFPGFIPSLLGDLLEERQKIKKKMKATIDPIERKLLDYRQRAIKILAN; chain 3 NSYYGYYGYARARWYCKECAESVTAWGREYITMTIKEIEEKYGFKVIYSDTDGFFATIPGADAETVKKKAMEFLKYINAKLPGALELEYEGFYKRGFFVTKKKYAVIDEEGKITTRGLEIVRRDWSEIAKETQARVLEALLKDGDVEKAVRIVKEVTEKLSKYEVPPEKLVIHEQITRDLKDYKATGPHVAVAKRLAARGVKIRPGTVISYIVLKGSGRIGDRAIPFDEFDPTKHKYDAEYYIENQVLPAVERILRAFGYRKEDLRYQKTRQVGLSAWLKPKGT
B8: adh (Lentilactobacillus kefiri, UniProt Q6WVP7); chain TDRLKGKVAIVTGGTLGIGLAIADKFVEEGAKVVITGRHADVGEKAAKSIGGTDVIRFVQHDASDEAGWTKLFDTTEEAFGPVTTVVNNAGIAVSKSVEDTTTEEWRKLLSVNLDGVFFGTRLGIQRMKNKGLGASIINMSSIEGFVGDPTLGAYNASKGAVRIMSKSAALDCALKDYDVRVNTVHPGYIKTPLVDDLEGAEEMMSQRTKTPMGHIGEPNDIAWICVYLASDESKFATGAEFVVDGGYTAQ
B9: enzyme A178R/D177A/M179S/P184R (Levilactobacillus brevis, UniProt Q03Q85); chain MKVTVVGCTHAGTFAIKQILAEHPDAEVTVYERNDVISFLSCGIALYLGGKVADPQGLFYSSPEELQKLGANVQMNHNVLAIDPDQKTVTVEDLTNHAQTTESYDKLVMTSGSWPIVPKIPGIDSDRVKLCKNWAHAQALIEDAKEAKRITVIGAGYIGAELAEAYSTTGHDVTLIARSARVMRKYFDADFTDVIEQDYRDHGVQLALGETVESFTDSATGLTIKTDKNSYETDLAILCIGFRPNTDLLKGKVDMAPNGAIITDDYMRSSNPDIFAAGDSAAVHYNPTHQNAYIPLATNAVRQGILVGKNLVKPTVKYMGTQSSSGLALYDRTIVSTGLTLAAAKQQGLNAEQVIVEDNYRPEFMPSTEPVLMSLVFDPDTHRILGGALMSKYDVSQSANTLSVCIQNENTIDDLAMVDMLFQPNFDRPFNYLNILAQAAQAKVAQSVNA
Sequence of UniProt P19337 (whole entry, looked up): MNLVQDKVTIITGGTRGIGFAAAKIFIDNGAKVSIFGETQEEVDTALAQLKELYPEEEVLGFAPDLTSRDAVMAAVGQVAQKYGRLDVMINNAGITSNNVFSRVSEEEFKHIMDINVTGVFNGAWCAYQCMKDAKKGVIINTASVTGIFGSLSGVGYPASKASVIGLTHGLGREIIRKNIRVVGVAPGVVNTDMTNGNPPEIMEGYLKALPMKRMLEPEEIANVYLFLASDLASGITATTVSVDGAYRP

`B1 (enzyme)` gave a Km of 19 µM (CC(=O)SCCNC(=O)CCNC(=O)[C@H](O)C(C)(C)COP(=O)(O)OP(=O)(O)OC[C@H]1O[C@@H](n2cnc3c(N)ncnc32)[C@H](O)[C@@H]1OP(=O)(O)O; pH 7.5, 30 °C).
`B2 (MCAT R178A)` gave a Km of 1060 µM (CC(C)(COP(=O)(O)OP(=O)(O)OC[C@H]1O[C@@H](n2cnc3c(N)ncnc32)[C@H](O)[C@@H]1OP(=O)(O)O)[C@@H](O)C(=O)NCCC(=O)NCCSC(=O)CC(=O)O; pH 6.8, 20 °C, labelled substrate, with: holo-ACP 20 µM).
With `BH1128 (Halalkalibacterium halodurans, UniProt Q9KDT3)` the Km was 1.7 µM (N[C@@H](Cc1c[nH]c2ccccc12)C(=O)O; pH 8.5, 22 °C, NaCl 50 mM, with: Na+ gradient, valinomycin 1 µM).
`B3 (protein)` has a Km of 319 µM (O=C/C=C/c1ccc(O)cc1; pH 7.5, 30 °C, not purified, with: NADPH 1 mM).
With `B4` the Km was 380 µM (Nc1ncnc2c1ncn2[C@@H]1O[C@H](COP(=O)(O)OP(=O)(O)OP(=O)(O)O)[C@@H](O)[C@H]1O; pH 7.6, KCl 100 mM, with: glutamine 10 mM, ornithine 10 mM).
`B5 (KS T528V)` gave a Km of 5 µM (C=C1CC[C@@H]2C(C)(C)CCC[C@@]2(C)[C@@H]1CC/C(C)=C/COP(=O)(O)OP(=O)(O)O; pH 7.2, 30 °C, GGPP-derived substrate).
The Km of `BaiA2 (Clostridium scindens, UniProt P19337)` is reported as 1.1 µM (C[C@H](CCC(=O)SCCNC(=O)CCNC(=O)[C@H](O)C(C)(C)COP(=O)(O)OP(=O)(O)OC[C@H]1O[C@@H](n2cnc3c(N)ncnc32)[C@H](O)[C@@H]1OP(=O)(O)O)[C@H]1CC[C@H]2[C@@H]3[C@H](O)C[C@@H]4CC(=O)CC[C@]4(C)[C@H]3CC[C@]12C; pH 8.7, 37 °C, with: NADH).
With `B6 (LYS1 C205S/K99M)` the Km was 200 µM (NC(=O)C1=CN([C@@H]2O[C@H](COP(=O)(O)OP(=O)(O)OC[C@H]3O[C@@H](n4cnc5c(N)ncnc54)[C@H](O)[C@@H]3O)[C@@H](O)[C@H]2O)C=CC1; pH 7.2, 25 °C, with: Lys and α-Kg).
For `B7 (pol D141A/E143A)`, the Km was 4 µM (Nc1nc2c(ncn2[C@H]2C[C@H](O)[C@@H](COP(=O)(O)OP(=O)(O)OP(=O)(O)O)O2)c(=O)[nH]1; pH 8, 55 °C).
`gapN (Streptococcus mutans, UniProt Q59931)` gave a Km of 22 µM (NC(=O)c1ccc[n+]([C@@H]2O[C@H](COP(=O)(O)OP(=O)(O)OC[C@H]3O[C@@H](n4cnc5c(N)ncnc54)[C@H](OP(=O)(O)O)[C@@H]3O)[C@@H](O)[C@H]2O)c1; pH 8, racemic G3P, cofactor varied, with: NADP+).
`B8 (adh)` has a Km of 217 µM (NC(=O)c1ccc[n+]([C@@H]2O[C@H](COP(=O)(O)OP(=O)(O)OC[C@H]3O[C@@H](n4cnc5c(N)ncnc54)[C@H](OP(=O)(O)O)[C@@H]3O)[C@@H](O)[C@H]2O)c1; pH 9, 30 °C, not purified, cofactor varied).
For `B9 (enzyme A178R/D177A/M179S/P184R)`, the Km was 18 µM (NC(=O)C1=CN([C@@H]2O[C@H](COP(=O)(O)OP(=O)(O)OC[C@H]3O[C@@H](n4cnc5c(N)ncnc54)[C@H](O)[C@@H]3O)[C@@H](O)[C@H]2O)C=CC1; pH 7.5, 37 °C).

For quick reference, copied from above:
`B2 (MCAT R178A)` gave a Km of 1060 µM (CC(C)(COP(=O)(O)OP(=O)(O)OC[C@H]1O[C@@H](n2cnc3c(N)ncnc32)[C@H](O)[C@@H]1OP(=O)(O)O)[C@@H](O)C(=O)NCCC(=O)NCCSC(=O)CC(=O)O; pH 6.8, 20 °C, labelled substrate, with: holo-ACP 20 µM).
With `BH1128 (Halalkalibacterium halodurans, UniProt Q9KDT3)` the Km was 1.7 µM (N[C@@H](Cc1c[nH]c2ccccc12)C(=O)O; pH 8.5, 22 °C, NaCl 50 mM, with: Na+ gradient, valinomycin 1 µM).
